Published values gathered from unrelated publications.
Parts stem from different laboratories: compare values within a part only.

Block 1
Target: Sal-like protein 4, full length isoform A (SALL4, Homo sapiens, UniProt Q9UJQ4, residues 1-1053)
UniProt Q9UJQ4, sequence (whole entry, looked up): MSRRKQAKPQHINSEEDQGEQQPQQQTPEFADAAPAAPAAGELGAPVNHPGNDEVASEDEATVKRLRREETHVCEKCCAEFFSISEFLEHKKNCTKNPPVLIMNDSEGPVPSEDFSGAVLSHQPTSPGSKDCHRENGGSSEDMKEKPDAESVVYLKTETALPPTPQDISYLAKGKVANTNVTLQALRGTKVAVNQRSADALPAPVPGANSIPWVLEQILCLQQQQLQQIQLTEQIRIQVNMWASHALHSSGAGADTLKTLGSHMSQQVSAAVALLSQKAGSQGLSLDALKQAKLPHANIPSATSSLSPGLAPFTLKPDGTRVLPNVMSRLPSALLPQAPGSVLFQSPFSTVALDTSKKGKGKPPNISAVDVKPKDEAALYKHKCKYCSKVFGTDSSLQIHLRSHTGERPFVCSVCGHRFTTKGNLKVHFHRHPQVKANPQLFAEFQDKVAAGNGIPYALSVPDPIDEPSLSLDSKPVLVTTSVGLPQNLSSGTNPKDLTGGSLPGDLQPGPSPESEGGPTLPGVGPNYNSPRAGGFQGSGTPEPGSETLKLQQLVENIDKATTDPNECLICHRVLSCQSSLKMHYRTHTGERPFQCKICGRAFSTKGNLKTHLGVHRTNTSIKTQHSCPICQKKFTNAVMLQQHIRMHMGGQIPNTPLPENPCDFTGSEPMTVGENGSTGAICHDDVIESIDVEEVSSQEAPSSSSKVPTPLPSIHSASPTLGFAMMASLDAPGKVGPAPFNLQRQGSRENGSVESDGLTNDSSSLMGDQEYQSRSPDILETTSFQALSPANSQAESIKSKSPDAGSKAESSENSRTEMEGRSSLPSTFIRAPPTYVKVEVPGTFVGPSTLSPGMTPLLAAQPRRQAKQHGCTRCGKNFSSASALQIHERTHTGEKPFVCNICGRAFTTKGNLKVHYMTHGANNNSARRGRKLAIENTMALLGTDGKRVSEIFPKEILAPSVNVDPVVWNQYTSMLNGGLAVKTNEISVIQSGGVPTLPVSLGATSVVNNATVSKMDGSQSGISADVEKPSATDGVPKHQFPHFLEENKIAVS
Method: universal PBM
Molecule type: double-stranded DNA, one strand shown
Sample: in vitro
Concentration: 600 nM
Setting: 8-mer, flanks averaged, mean of replicates
Direction: higher = stronger binding
Endpoint: E-score
AATCGAAT: 0.258
AGACGAAC: 0.0785
AGTCAGTA: 0.0864
AAGACCTC: -0.143
CTGCGCTA: -0.174
CCGTCACA: -0.159

Block 2
Target: PABPC1L2, full length, GST fusion (mouse, UniProt A0ABA7IW68)
Method: RNAcompete
Molecule type: RNA
Sample: in vitro
Concentration: 20 nM
Setting: 7-mer, probes averaged, single round
Relative to: mean of 7-mers
Direction: higher = stronger binding
Endpoint: 7-mer Z-score
Construct (chain): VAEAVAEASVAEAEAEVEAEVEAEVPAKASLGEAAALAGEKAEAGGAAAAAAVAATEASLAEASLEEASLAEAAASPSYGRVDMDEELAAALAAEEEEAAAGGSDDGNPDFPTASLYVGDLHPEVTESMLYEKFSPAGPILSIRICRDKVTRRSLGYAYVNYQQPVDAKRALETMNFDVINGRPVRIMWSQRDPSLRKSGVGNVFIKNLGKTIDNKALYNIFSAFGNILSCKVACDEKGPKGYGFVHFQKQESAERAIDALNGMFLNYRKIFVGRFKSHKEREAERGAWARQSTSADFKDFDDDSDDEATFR
CCUUCCA: -0.374
GCCACGC: -0.132
UGCGACC: -0.155

Block 3
Target: Phosphate system positive regulatory protein PHO4, full length, GST-tagged (PHO4, Saccharomyces cerevisiae, UniProt P07270, residues 1-312)
Method: competition protein-binding microarray
Molecule type: double-stranded DNA, one strand shown
Sample: in vitro
Concentration: 2 µM
Setting: whole 60-bp probe, lowest competitor level
With: Cbf1 competitor, 0.05 µM
Direction: higher = stronger binding
Endpoint: fluorescence intensity
All sequences stand within: … GTCTTGATTCGCTTGACGCTGCTG
Target sequence (chain): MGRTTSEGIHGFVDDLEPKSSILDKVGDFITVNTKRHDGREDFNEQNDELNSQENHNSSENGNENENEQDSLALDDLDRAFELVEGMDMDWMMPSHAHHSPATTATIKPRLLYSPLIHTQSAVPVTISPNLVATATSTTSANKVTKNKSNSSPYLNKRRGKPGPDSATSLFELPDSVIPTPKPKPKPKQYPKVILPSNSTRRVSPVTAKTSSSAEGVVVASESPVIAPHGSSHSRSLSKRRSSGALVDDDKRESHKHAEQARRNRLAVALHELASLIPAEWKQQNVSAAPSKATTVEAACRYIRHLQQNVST
CGGGGTTAAGTTTGCATCGTGGGTGGCTTGCAGCAG: 10000 a.u.
TTAGATTAAGTAGGACGCATGATGTTGAGCTCTTTT: 7080 a.u.
CGTCCTAGTGATTGGGCTGTGGGTGCCATGAGGAAG: 6330 a.u.
AAATTACTAAGTTGTCACCTTACTTACCCCGTATGA: 4040 a.u.
TGCGCAACAACTTGCCACGTGTTTTTATGTCTAGAA: 16600 a.u.

Mixed results
PhoQ, residues 284 288 289 292 302 303 SCCLKL  fold induction (PhoP, residues 12 14 15 18 19 GHCSL (Escherichia coli, UniProt P23836); Sort-seq, item: YFP reporter; E. coli; PhoQ-PhoP variant library, with: 10 µM Mg2+; relative to: high Mg2+ state, higher = stronger signaling): 7.59

For quick reference, copied from above (block 1):
CTGCGCTA: -0.174
CCGTCACA: -0.159
